{"data": "Measurements gathered from unrelated publications", "note": "Parts stem from different laboratories: compare values within a part only."}
{"data": "Block 1", "target": "Fragile X messenger ribonucleoprotein 1, C-terminal low-complexity region (Fmr1, Mus musculus, UniProt P35922)", "technique": "RNA Bind-n-Seq", "form": "RNA", "medium": "in vitro", "tested at": "200 nM", "notes": "whole 134-nt RNA, ends assumed", "together with": "150 mM KCl", "relative to": "input library", "reading": "higher = stronger binding", "shared flanks, not repeated": "GGGAGUUCUACAGUCCGACGAUC … UGGAAUUCUCGGGUGUCAAGG"}
{"Oligonucleotide": "AAGUCCUGUGCUACACAUCGUAUGUACCGAAUCGGAAAAAGGAAAAAGGUUUUUGGAAAGUAUUAUGUUACGCCGUUCGGAUCUGCACUU", "log2 enrichment": -1.18}
{"Oligonucleotide": "ACCAUGCAGGUGGGCAUCUUUGGGAAGUGGGGCAAGGGGGGGAUAGGGAGGGGGGUAACAAAUUGGGAACAGGUGGUCCCAGGUCGUUUC", "log2 enrichment": 0.548}
{"Oligonucleotide": "UCCUGUGCUACACAUCGUAUGUACCGAAUCGGCCCCCCCGGGCCCCCCCGGCCCCCCCGGAAAGUAUUAUGUUACGCCGUUCGGAUCUGC", "log2 enrichment": 0.261}
{"Oligonucleotide": "UUUCUUCCCCCACAGUUCAUCCAUGAGCUCGGAUUUCCCACAUUACAACUUCAGGAUGCCUAAUAUUGGAUUCCAGAAUCUGCCUCUCAA", "log2 enrichment": 0.828}
{"Oligonucleotide": "CAAGUCCUGUGCUACACAUCGUAUGUACCGAAUCGGGCCCCGGCCCCGGCCCCGGGAAAGUAUUAUGUUACGCCGUUCGGAUCUGCACUU", "log2 enrichment": -0.564}
{"Oligonucleotide": "AAGUCCUGUGCUACACAUCGUAUGUACCGAAUCGGGGAGGGGUUUUUGGGGUGGGGAAAGUAUUAUGUUACGCCGUUCGGAUCUGCACUU", "log2 enrichment": 1.17}
{"Oligonucleotide": "UCCUGUGCUACACAUCGUAUGUACCGAAUCGGGAAAAAAAGGGAAAAAAAGGGAAAGGGAAAGUAUUAUGUUACGCCGUUCGGAUCUGCA", "log2 enrichment": -0.127}
{"Oligonucleotide": "CCUGUGCUACACAUCGUAUGUACCGAAUCGGGGAAAAAAGGAAAAAAGGGGAAAAAAGGGAAAGUAUUAUGUUACGCCGUUCGGAUCUGC", "log2 enrichment": -0.472}
{"Oligonucleotide": "AAGUCCUGUGCUACACAUCGUAUGUACCGAAUCGGCCCGGGGCCCGGGGCCCGGGGAAAGUAUUAUGUUACGCCGUUCGGAUCUGCACUU", "log2 enrichment": -0.667}
{"data": "Block 2", "target": "Histone acetyltransferase KAT6A, winged helix 2, GST fusion (KAT6A, Homo sapiens, UniProt Q92794, residues 85-181)", "technique": "protein binding microarray", "form": "double-stranded DNA, one strand shown", "medium": "in vitro", "tested at": "not given", "notes": "8-mer, flanks averaged, mean of 2 arrays, mostly near background", "relative to": "not given", "reading": "higher = stronger binding", "Residues (chain)": "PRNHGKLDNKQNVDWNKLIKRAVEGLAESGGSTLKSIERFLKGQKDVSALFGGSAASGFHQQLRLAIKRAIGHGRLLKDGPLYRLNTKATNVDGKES"}
{"Oligonucleotide": "AAACTGAT", "E-score": -0.0289}
{"Oligonucleotide": "AGCGTAGA", "E-score": -0.0246}
{"Oligonucleotide": "GCTTGTAC", "E-score": -0.0285}
{"Oligonucleotide": "GTCTGCCA", "E-score": -0.0742}
{"Oligonucleotide": "ACGGACCC", "E-score": 0.0755}
{"Oligonucleotide": "GTGACCAC", "E-score": -0.0324}
{"Oligonucleotide": "CCATTGAG", "E-score": 0.0472}
{"Oligonucleotide": "ACAGGCGG", "E-score": 0.16}
{"Oligonucleotide": "ATTTCTTA", "E-score": 0.0766}
{"Oligonucleotide": "ATACTATA", "E-score": -0.0752}
{"Oligonucleotide": "AAACGGAC", "E-score": -0.0942}
{"Oligonucleotide": "AGAGGACA", "E-score": -0.0805}
{"Oligonucleotide": "AGCTTCAA", "E-score": -0.0378}
{"Oligonucleotide": "CTAGATGA", "E-score": -0.178}
{"Oligonucleotide": "AATCGCGC", "E-score": 0.186}
{"Oligonucleotide": "ACGGTTCA", "E-score": -0.273}
{"Oligonucleotide": "CAGTTCGG", "E-score": 0.18}
{"Oligonucleotide": "CTATTGAC", "E-score": -0.106}
{"Oligonucleotide": "GTGCGTCA", "E-score": 0.1}
{"Oligonucleotide": "ACGTTAAT", "E-score": -0.00105}
{"Oligonucleotide": "AACCATGA", "E-score": 0.0122}
{"Oligonucleotide": "CATGATGG", "E-score": -0.168}
{"Oligonucleotide": "AACTATGG", "E-score": -0.124}
{"Oligonucleotide": "GCCGGGAA", "E-score": 0.176}
{"Oligonucleotide": "CCACATAA", "E-score": 0.0241}
{"data": "Block 3", "target": "Interferon regulatory factor 7, full length, phosphomimetic (IRF7, Homo sapiens, UniProt Q92985, residues 1-503, S101K/S471D/S472D/S475D/S476D/S477D/S483D/S484D/S487D)", "technique": "protein-binding microarray", "form": "double-stranded DNA, one strand shown", "medium": "in vitro", "tested at": "250 nM", "notes": "60-bp whole probe", "together with": "salmon DNA 0.4 mg/ml", "relative to": "random background probes", "reading": "higher = stronger binding", "shared flanks, not repeated": "GCCTAGCAC … GTCTTGATTCGCTTGACGCTGCTG", "Construct (chain)": "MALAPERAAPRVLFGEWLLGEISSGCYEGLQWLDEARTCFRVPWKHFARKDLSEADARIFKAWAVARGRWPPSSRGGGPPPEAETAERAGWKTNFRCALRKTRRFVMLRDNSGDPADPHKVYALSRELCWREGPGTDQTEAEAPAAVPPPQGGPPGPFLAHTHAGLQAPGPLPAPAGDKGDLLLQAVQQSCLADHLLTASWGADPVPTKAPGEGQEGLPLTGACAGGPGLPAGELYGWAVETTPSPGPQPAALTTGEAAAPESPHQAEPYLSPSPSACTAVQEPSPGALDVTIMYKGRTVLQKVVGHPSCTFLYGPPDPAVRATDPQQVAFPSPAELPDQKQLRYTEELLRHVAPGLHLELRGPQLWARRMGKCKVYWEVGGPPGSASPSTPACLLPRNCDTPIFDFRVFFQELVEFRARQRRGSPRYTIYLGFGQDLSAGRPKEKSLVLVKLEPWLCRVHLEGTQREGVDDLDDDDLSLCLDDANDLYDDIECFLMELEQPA"}
{"Oligonucleotide": "TTAGGACTGGTGTATCGGTTAGTGCTA", "log fluorescence [z-score]": -0.325}
{"Oligonucleotide": "GAAGATATCGGGACTGGAGACGTGCTA", "log fluorescence [z-score]": -0.578}
{"Oligonucleotide": "TCACATCTCACTCTAATACTGTGCTAG", "log fluorescence [z-score]": 0.43}
{"Oligonucleotide": "TCATCTTCCCTTTTAAGACTGTGCTAG", "log fluorescence [z-score]": 1.8}
{"Oligonucleotide": "TCACTCATACATCTGGGACTGTGCTAG", "log fluorescence [z-score]": -0.0362}
{"Oligonucleotide": "TTAGGTTTCCGTCTCCTTTAGTGCTAG", "log fluorescence [z-score]": 2.84}
{"Oligonucleotide": "TCATCTCTCATGTTACAACTGTGCTAG", "log fluorescence [z-score]": 0.87}
{"Oligonucleotide": "TCTTCCTTTACTTTCTTTTTGTGCTAG", "log fluorescence [z-score]": 2.93}
{"Oligonucleotide": "GACGGTTTCCTTATCCTCACGTGCTAG", "log fluorescence [z-score]": 3.42}
{"Oligonucleotide": "TCACTTCCATTTTCTGAAACTGTGCTA", "log fluorescence [z-score]": 1.98}
{"Oligonucleotide": "TTAGATATCAGTAACGATTAGTGCTAG", "log fluorescence [z-score]": -0.139}
{"Oligonucleotide": "TCCCCTCTCTTTCCAACTCTGTGCTAG", "log fluorescence [z-score]": 0.621}
{"Oligonucleotide": "GACGGACTGGGGTCTGGGGACGTGCTA", "log fluorescence [z-score]": -0.646}
{"Oligonucleotide": "GACGGTATCGACACTAGGGACGTGCTA", "log fluorescence [z-score]": -0.243}
{"Oligonucleotide": "TTAGGTATCCTACGGCTTTAGTGCTAG", "log fluorescence [z-score]": -0.547}
{"Oligonucleotide": "GACGGTATCCTTATCCTTACGTGCTAG", "log fluorescence [z-score]": 0.15}
{"Oligonucleotide": "CTATAAAGCATCAGGAAAGCGTGCTAG", "log fluorescence [z-score]": -0.208}
{"Oligonucleotide": "ACTTAAACTAGAAACTGACTTGTGCTA", "log fluorescence [z-score]": 0.588}
{"Oligonucleotide": "CACTAGTTTCTTTTCTTTTCGTGCTAG", "log fluorescence [z-score]": 6.52}
{"data": "Block 4", "target": "RNA binding protein fox-1 homolog 2, RRM domain, GST-SBP tag (RBFOX2, Homo sapiens, UniProt O43251-10, residues 100-194)", "technique": "RNA Bind-n-Seq", "form": "RNA", "medium": "in vitro", "tested at": "365 nM", "notes": "natural RNA segment, single round, ends assumed", "relative to": "no-protein control", "reading": "higher = stronger binding", "shared flanks, not repeated": "GGGAGUUCUACAGUCCGACGAUC … UGGAAUUCUCGGGUGCCAA", "Residues (chain)": "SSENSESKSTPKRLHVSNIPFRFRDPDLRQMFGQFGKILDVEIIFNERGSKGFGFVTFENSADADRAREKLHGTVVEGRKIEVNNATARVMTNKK"}
{"Oligonucleotide": "UGUGUCCAAUCGGAGACAAAAGCAGUUUCUCUCCAACUCCCUCUGGGAAGGUGACCUGGCCAGAGCCAAGAAACACUUUCAGAAAAACAAAUGUGAAGGGGAGAGACAGG", "RBNS enrichment (R)": 0.2}
{"Oligonucleotide": "CCCUUCCUGGCCCAAGAGAGCAUCCAGAAGGCAGUAGGACCUGGUUUUUCAGGUACUGGGAGCCGGGGGCUCACUGCUUGCACUGUGCUUAGGGUAGGGAUGGUAAAUAU", "RBNS enrichment (R)": 0.503}
{"Oligonucleotide": "UGUAUCUACUUAGCCAGAUGCUUGGCCUGGUGGGACCAGGGCUCCACAGAGGCCACAAAAUGUUGCAAGUCAUGAUGGAUGGAAAUAUGUUCUAACAGCAUCUGCCUCUA", "RBNS enrichment (R)": 4.09}
{"Oligonucleotide": "UUUUCGUUUCUAUACAACUUCAUUUCAUACACCUUCUGCCCUUACAGCACCUCAUGGGAUCAGAAAAGAGAAAGAUGUUGGCUCUUGUAAUAAAUGCUUUCUACCCUAUA", "RBNS enrichment (R)": 1.86}
{"Oligonucleotide": "CUAAGAAUGAAAACAGGUCAUAUGUAAUAUUUUGUUUGUAAGUAUCCUUUGUAUCAUAGCAAAGGAAAUGUUUAAAAGAUCAACUGUAAUAAAAGUAAUUUUAGUACACA", "RBNS enrichment (R)": 0.431}
{"Oligonucleotide": "CUUCAUCUGUUCCCGCCUCUGCCAUCUGCUACGGUGUCGUCAGUUGUAUGGCAUUAAUUUCCUGCCACUAGAGAUAUUUUGAAGAUUGCUUGAAUGCUGGUGUCUGUUAG", "RBNS enrichment (R)": 2.43}
{"Oligonucleotide": "CGGAUUUCUGAGUUUGAGGCCAGCCUGGUCUACAGAGUGAGUUCGAGGACAACCAGGGCUACACAGAGAAACCCUGUCUCGAAAACCAAAAACAAAAAAAAAGAACUCCA", "RBNS enrichment (R)": 0.55}
{"Oligonucleotide": "CUAUCACUGUUAAGGGGGGGGGAAAGUGAGGUUCGAGGAUGACGUAGGUAACUCUCCCCUCCCAAGUCCAUGUUCCAAGUGGCUAUGUAAAGCAAGAUGAUACAGAAAGC", "RBNS enrichment (R)": 0.774}
{"note": "Excerpt of the above (block 4):"}
{"Oligonucleotide": "CCCUUCCUGGCCCAAGAGAGCAUCCAGAAGGCAGUAGGACCUGGUUUUUCAGGUACUGGGAGCCGGGGGCUCACUGCUUGCACUGUGCUUAGGGUAGGGAUGGUAAAUAU", "RBNS enrichment (R)": 0.503}
{"Oligonucleotide": "UGUAUCUACUUAGCCAGAUGCUUGGCCUGGUGGGACCAGGGCUCCACAGAGGCCACAAAAUGUUGCAAGUCAUGAUGGAUGGAAAUAUGUUCUAACAGCAUCUGCCUCUA", "RBNS enrichment (R)": 4.09}
{"Oligonucleotide": "UUUUCGUUUCUAUACAACUUCAUUUCAUACACCUUCUGCCCUUACAGCACCUCAUGGGAUCAGAAAAGAGAAAGAUGUUGGCUCUUGUAAUAAAUGCUUUCUACCCUAUA", "RBNS enrichment (R)": 1.86}
{"Oligonucleotide": "CUAAGAAUGAAAACAGGUCAUAUGUAAUAUUUUGUUUGUAAGUAUCCUUUGUAUCAUAGCAAAGGAAAUGUUUAAAAGAUCAACUGUAAUAAAAGUAAUUUUAGUACACA", "RBNS enrichment (R)": 0.431}
{"Oligonucleotide": "CUUCAUCUGUUCCCGCCUCUGCCAUCUGCUACGGUGUCGUCAGUUGUAUGGCAUUAAUUUCCUGCCACUAGAGAUAUUUUGAAGAUUGCUUGAAUGCUGGUGUCUGUUAG", "RBNS enrichment (R)": 2.43}
